Assay results gathered from unrelated publications.
Numbers after ± are the reported error.
HLA class I histocompatibility antigen, A alpha chain allele A*02:01: HLA class I histocompatibility antigen, A alpha chain, allele A*02:01 (Homo sapiens, UniProt P04439)
UniProt Q9Y239, sequence (whole entry, looked up): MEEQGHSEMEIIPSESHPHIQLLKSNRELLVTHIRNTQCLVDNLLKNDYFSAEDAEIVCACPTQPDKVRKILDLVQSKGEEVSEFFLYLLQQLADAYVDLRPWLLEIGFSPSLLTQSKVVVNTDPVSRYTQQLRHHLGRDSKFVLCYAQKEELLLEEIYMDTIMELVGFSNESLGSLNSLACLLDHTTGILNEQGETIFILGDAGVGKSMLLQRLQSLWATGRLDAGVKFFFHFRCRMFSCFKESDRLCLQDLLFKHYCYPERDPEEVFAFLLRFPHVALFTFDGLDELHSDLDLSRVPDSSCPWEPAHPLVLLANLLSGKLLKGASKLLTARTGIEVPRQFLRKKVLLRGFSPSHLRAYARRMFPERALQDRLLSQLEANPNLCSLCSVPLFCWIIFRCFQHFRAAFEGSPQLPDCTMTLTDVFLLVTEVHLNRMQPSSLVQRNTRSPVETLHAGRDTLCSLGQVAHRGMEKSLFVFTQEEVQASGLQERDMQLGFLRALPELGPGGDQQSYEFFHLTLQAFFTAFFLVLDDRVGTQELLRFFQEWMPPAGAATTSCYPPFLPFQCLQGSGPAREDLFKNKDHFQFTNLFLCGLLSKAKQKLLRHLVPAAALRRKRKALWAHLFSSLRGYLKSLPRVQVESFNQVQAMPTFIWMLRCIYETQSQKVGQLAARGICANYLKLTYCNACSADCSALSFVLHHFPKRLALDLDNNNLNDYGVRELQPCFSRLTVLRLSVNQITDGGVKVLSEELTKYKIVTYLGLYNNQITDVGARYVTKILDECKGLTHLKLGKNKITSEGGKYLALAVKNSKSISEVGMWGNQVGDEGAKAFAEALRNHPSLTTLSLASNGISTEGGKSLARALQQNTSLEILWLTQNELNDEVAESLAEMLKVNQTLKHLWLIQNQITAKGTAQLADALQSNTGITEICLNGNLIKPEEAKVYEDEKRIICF
UniProt Q8IUN9, sequence (whole entry, looked up): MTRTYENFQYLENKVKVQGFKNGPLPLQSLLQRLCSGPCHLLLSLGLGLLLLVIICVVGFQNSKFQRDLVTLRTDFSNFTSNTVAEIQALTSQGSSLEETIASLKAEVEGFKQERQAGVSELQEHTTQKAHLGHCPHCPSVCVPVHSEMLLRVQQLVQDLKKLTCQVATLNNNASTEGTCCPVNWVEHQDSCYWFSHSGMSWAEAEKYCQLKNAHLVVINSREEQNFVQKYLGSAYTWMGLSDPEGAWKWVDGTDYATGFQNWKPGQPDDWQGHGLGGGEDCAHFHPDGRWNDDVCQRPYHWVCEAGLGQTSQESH
UniProt Q92731, sequence (whole entry, looked up): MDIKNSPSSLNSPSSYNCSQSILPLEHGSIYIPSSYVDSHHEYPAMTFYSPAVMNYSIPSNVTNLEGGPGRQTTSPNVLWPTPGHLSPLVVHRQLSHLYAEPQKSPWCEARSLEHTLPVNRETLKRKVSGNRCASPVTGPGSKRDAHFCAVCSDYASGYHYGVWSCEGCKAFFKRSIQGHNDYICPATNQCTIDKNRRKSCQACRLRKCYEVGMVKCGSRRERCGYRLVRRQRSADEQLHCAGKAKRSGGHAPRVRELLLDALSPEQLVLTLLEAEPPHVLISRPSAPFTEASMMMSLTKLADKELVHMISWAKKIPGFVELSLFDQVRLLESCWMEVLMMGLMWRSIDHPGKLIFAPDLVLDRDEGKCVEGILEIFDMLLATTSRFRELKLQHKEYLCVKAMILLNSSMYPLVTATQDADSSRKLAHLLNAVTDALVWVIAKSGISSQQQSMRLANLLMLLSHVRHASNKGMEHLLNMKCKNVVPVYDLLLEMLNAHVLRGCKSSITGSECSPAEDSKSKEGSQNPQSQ
UniProt P18206, sequence (whole entry, looked up): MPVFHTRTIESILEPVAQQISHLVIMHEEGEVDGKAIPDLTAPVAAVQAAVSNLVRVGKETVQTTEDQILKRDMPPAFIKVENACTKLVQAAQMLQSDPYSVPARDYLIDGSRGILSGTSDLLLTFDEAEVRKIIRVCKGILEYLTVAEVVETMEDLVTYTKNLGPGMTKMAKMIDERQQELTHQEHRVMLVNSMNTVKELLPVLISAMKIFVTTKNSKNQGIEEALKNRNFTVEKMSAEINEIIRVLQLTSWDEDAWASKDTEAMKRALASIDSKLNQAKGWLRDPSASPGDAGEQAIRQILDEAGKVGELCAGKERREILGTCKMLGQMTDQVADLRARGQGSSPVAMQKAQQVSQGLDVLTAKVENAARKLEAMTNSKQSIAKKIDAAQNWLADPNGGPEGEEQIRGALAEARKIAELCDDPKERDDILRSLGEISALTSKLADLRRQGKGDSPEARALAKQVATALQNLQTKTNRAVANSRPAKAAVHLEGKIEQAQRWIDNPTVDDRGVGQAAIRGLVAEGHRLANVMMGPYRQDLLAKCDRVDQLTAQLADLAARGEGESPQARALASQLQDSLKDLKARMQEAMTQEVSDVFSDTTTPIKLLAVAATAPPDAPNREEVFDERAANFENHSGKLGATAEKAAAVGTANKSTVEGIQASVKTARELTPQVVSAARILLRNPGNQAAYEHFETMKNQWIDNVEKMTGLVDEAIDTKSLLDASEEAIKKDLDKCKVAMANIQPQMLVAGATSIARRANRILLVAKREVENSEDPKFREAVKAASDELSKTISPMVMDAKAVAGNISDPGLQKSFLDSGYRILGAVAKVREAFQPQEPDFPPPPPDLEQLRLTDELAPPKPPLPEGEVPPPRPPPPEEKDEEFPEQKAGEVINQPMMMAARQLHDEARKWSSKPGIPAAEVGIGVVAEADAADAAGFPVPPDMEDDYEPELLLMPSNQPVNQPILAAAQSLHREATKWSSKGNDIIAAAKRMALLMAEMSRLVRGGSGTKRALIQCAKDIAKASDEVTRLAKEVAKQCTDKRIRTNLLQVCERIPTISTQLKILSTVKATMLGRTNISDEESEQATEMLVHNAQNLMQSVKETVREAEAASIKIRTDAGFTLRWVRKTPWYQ
UniProt Q13283, sequence (whole entry, looked up): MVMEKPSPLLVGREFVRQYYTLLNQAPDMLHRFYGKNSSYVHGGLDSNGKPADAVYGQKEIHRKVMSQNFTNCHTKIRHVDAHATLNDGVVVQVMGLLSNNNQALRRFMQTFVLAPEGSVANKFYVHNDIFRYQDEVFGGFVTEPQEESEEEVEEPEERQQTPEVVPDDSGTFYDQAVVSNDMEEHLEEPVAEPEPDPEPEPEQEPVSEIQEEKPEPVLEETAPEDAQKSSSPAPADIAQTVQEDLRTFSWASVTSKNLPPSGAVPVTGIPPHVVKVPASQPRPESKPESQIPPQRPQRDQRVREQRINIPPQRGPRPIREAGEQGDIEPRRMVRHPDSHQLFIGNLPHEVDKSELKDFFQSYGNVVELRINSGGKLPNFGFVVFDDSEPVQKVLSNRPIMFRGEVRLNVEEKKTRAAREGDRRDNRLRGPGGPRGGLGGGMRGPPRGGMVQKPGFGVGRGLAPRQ

Substance | target | assay | test system | setting | scale | endpoint | result
Phytol | uncharacterized protein (Drosophila suzukii, UniProt A0AB39ZCT4) | bis-ANS displacement, fluorescence competition binding | – | pH 7.4 | – | IC50 | > 50000 nM
asialo ovine submaxillary mucin | CLEC10A (Homo sapiens, UniProt Q8IUN9) | glycan microarray | – | – | – | Kd | 95 ± 18 nM
polyuridylic acid | G3BP1 (Homo sapiens, UniProt Q13283) | binding, biolayer interferometry | – | pH 7.5 | – | Kd | 9360 ± 40 nM
epigallocatechin | ESR2 (Homo sapiens, UniProt Q92731) | array formation, agonist | GFP-ERβ PRL-HeLa | 1 h | – | EC50 | 1770 nM
FLAFVPLQL | HLA class I histocompatibility antigen, A alpha chain allele A*02:01 | peptide-MHC stability, brefeldin A chase | peptide, T2 cells | – | – | complex half-life | > 7 h
sacituzumab | cynomolgus TROP2 | binding, bio-layer interferometry | – | – | – | Kd | 2.91 nM
IMNSLSLFA | HLA class I histocompatibility antigen, A alpha chain allele A*02:01 | peptide-MHC stability, brefeldin A chase | peptide, T2 cells | – | – | complex half-life | 3.4 h
11-deoxycorticosterone | human CYP11B2 | stopped-flow kinetic modelling | – | 3-state induced fit model, with: no adrenodoxin | – | Kd | 2340 nM
GSGAGIESNV | human MAGI1-2/6 PDZ construct (MBP fusion) | surface plasmon resonance | peptide | concentration not given | higher = stronger binding | normalised SPR binding response | 0 normalised RU
ILEAAKSIAAATSALVKAASAAQRE | Vinculin, Vd1 head domain (VCL, Homo sapiens, UniProt P18206) | binding, isothermal titration calorimetry | peptide | 25 °C | – | Kd | 34 ± 6 nM
FITC-ATP | NOD1 (Homo sapiens, UniProt Q9Y239) | fluorescence polarization | – | – | – | Kd | 25 nM
LTLGEFLKL | HLA class I histocompatibility antigen, A alpha chain allele A*02:01 | peptide-MHC stability, brefeldin A chase | peptide, T2 cells | – | – | complex half-life | 2.72 h
KDECVIATEV | human MAGI1-3/6 PDZ construct (MBP fusion) | surface plasmon resonance | peptide | concentration not given | higher = stronger binding | normalised SPR binding response | 10 normalised RU
SLPDRILDA | HLA class I histocompatibility antigen, A alpha chain allele A*02:01 | peptide-MHC stability, brefeldin A chase | peptide, T2 cells | – | – | complex half-life | 0.74 h
EDQVDPRLIDSK | anti-protein C antibody HPC4, mouse | binding, peptide microarray | peptide | peptide immobilised | – | Kd | 32 nM

For quick reference, copied from above:
Substance | target | assay | test system | setting | scale | endpoint | result
GSGAGIESNV | human MAGI1-2/6 PDZ construct (MBP fusion) | surface plasmon resonance | peptide | concentration not given | higher = stronger binding | normalised SPR binding response | 0 normalised RU
epigallocatechin | ESR2 (Homo sapiens, UniProt Q92731) | array formation, agonist | GFP-ERβ PRL-HeLa | 1 h | – | EC50 | 1770 nM
